# Measured values pooled from the literature.
# Every numbered part comes from another study and shows a few of its results, in no order. Changes are numbered by the printed parent chain.

# Series 1 — technique: aptamer microarray, sandwich; molecule type: DNA with 2'F-ANA; medium: in vitro; concentration: 200 nM; together with: Cy3 exosite-II aptamer, 400 nM; reading: higher = stronger binding; sequence: GGTTGGTGTGGTTGG
# Target: Prothrombin, mature alpha-thrombin (F2, Homo sapiens, UniProt P00734)
# Notes: whole 15-mer aptamer, many near background
Modification,mean fluorescence intensity
2'F-ANA at 2 3 4 5 7 9 10 12 14,48.1 a.u.
2'F-ANA at 1 3 4 5 7 8 11 12 13 14 15,49.9 a.u.
2'F-ANA at 5 6 7 8 9 10 11 12 14 15,51.7 a.u.
2'F-ANA at 3 4 8 12 13 14 15,325 a.u.
2'F-ANA at 1 2 3 4 9 12 14 15,70.9 a.u.
2'F-ANA at 1 2 3 4 5 8 9 10 12 14,48 a.u.

# Series 2 — technique: universal PBM; molecule type: double-stranded DNA, one strand shown; medium: in vitro; concentration: 600 nM; reading: higher = stronger binding
# Target: Sal-like protein 4, full length isoform A (SALL4, Homo sapiens, UniProt Q9UJQ4, residues 1-1053)
# Chain of UniProt Q9UJQ4 (whole entry, looked up): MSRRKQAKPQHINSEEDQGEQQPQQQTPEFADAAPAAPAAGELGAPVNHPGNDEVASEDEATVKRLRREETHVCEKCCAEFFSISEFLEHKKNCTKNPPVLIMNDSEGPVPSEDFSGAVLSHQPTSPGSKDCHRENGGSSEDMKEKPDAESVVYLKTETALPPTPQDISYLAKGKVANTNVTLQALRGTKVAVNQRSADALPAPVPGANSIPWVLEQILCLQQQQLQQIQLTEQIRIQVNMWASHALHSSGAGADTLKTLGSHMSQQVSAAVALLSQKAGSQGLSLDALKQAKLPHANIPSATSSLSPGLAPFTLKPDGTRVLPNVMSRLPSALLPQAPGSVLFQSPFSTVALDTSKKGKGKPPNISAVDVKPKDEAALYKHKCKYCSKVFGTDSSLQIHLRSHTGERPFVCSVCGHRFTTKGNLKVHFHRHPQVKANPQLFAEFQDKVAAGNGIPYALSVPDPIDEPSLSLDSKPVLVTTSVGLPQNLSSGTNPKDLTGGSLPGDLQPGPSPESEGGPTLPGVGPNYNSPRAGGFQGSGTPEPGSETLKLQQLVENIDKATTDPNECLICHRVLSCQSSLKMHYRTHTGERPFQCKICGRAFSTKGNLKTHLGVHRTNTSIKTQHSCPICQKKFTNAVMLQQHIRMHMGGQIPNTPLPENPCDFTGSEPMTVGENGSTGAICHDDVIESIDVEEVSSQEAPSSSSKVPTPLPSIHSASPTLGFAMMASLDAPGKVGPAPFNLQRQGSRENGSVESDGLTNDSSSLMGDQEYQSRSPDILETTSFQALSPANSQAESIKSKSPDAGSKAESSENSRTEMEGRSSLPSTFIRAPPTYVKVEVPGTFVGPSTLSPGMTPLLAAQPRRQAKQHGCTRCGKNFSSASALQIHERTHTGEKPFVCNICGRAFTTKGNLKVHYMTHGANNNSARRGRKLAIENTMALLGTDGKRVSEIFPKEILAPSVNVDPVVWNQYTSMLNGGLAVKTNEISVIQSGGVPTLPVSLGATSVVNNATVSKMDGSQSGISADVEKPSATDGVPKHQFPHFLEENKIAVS
# Notes: 8-mer, flanks averaged, mean of replicates
Sequence,E-score
CCCGATCG,-0.24
ATTAGGCG,-0.0531
AGATCAGA,-0.0101
GGGTCAGA,-0.246
ATACAAGC,0.0931

# Series 3 — target: BATF2, bZIP domain (human); technique: DHFR protein complementation; medium: yeast; relative to: wild-type JUN-FOS pair; reading: higher = stronger binding
# Notes: single substitutions, most at no-binding floor
# Starting sequence: JUN, bZIP domain (human); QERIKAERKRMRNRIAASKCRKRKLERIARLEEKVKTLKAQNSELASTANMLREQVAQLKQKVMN; partner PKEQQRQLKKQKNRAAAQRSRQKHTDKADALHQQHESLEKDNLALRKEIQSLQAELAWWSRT
Change,binding fitness
L38P,-1.28 natural log
K36D,-0.31 natural log
Q55A,-0.288 natural log
A40P,-1.37 natural log

# Single results of other studies
Molecule,target,test,test system,setting,scale,measurement,value
"PhoQ, residues 284 288 289 292 302 303 TVTVVA","PhoP, residues 12 14 15 18 19 DLLYY (Escherichia coli, UniProt P23836)","Sort-seq, measured: YFP reporter",E. coli,"PhoQ-PhoP variant library, together with: 10 µM Mg2+","relative to: high Mg2+ state, higher = stronger signaling",fold induction,0.834
